Results from different studies.
Each line is one published result; not all experiments were run side by side.
Chain of UniProt Q9UK32 (whole entry, looked up): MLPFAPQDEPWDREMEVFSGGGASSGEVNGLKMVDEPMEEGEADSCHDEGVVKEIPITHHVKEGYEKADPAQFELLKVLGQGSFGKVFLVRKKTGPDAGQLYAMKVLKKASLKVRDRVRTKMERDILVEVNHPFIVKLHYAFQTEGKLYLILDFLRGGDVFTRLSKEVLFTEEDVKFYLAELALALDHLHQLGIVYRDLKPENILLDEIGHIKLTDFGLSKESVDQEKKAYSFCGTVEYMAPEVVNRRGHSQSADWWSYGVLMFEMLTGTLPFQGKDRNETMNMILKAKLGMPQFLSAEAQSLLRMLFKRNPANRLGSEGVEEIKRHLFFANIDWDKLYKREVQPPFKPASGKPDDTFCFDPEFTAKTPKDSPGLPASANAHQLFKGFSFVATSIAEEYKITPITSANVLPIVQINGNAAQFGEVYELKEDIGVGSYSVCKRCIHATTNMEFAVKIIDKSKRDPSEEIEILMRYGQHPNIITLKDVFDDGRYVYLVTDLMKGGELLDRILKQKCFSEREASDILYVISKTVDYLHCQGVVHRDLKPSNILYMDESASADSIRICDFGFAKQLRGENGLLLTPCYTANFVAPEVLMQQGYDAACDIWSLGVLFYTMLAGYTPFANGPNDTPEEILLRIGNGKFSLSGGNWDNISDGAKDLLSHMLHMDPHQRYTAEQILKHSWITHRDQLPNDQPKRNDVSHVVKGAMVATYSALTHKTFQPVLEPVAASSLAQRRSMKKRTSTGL
Chain of UniProt Q9H4A3 (whole entry, looked up): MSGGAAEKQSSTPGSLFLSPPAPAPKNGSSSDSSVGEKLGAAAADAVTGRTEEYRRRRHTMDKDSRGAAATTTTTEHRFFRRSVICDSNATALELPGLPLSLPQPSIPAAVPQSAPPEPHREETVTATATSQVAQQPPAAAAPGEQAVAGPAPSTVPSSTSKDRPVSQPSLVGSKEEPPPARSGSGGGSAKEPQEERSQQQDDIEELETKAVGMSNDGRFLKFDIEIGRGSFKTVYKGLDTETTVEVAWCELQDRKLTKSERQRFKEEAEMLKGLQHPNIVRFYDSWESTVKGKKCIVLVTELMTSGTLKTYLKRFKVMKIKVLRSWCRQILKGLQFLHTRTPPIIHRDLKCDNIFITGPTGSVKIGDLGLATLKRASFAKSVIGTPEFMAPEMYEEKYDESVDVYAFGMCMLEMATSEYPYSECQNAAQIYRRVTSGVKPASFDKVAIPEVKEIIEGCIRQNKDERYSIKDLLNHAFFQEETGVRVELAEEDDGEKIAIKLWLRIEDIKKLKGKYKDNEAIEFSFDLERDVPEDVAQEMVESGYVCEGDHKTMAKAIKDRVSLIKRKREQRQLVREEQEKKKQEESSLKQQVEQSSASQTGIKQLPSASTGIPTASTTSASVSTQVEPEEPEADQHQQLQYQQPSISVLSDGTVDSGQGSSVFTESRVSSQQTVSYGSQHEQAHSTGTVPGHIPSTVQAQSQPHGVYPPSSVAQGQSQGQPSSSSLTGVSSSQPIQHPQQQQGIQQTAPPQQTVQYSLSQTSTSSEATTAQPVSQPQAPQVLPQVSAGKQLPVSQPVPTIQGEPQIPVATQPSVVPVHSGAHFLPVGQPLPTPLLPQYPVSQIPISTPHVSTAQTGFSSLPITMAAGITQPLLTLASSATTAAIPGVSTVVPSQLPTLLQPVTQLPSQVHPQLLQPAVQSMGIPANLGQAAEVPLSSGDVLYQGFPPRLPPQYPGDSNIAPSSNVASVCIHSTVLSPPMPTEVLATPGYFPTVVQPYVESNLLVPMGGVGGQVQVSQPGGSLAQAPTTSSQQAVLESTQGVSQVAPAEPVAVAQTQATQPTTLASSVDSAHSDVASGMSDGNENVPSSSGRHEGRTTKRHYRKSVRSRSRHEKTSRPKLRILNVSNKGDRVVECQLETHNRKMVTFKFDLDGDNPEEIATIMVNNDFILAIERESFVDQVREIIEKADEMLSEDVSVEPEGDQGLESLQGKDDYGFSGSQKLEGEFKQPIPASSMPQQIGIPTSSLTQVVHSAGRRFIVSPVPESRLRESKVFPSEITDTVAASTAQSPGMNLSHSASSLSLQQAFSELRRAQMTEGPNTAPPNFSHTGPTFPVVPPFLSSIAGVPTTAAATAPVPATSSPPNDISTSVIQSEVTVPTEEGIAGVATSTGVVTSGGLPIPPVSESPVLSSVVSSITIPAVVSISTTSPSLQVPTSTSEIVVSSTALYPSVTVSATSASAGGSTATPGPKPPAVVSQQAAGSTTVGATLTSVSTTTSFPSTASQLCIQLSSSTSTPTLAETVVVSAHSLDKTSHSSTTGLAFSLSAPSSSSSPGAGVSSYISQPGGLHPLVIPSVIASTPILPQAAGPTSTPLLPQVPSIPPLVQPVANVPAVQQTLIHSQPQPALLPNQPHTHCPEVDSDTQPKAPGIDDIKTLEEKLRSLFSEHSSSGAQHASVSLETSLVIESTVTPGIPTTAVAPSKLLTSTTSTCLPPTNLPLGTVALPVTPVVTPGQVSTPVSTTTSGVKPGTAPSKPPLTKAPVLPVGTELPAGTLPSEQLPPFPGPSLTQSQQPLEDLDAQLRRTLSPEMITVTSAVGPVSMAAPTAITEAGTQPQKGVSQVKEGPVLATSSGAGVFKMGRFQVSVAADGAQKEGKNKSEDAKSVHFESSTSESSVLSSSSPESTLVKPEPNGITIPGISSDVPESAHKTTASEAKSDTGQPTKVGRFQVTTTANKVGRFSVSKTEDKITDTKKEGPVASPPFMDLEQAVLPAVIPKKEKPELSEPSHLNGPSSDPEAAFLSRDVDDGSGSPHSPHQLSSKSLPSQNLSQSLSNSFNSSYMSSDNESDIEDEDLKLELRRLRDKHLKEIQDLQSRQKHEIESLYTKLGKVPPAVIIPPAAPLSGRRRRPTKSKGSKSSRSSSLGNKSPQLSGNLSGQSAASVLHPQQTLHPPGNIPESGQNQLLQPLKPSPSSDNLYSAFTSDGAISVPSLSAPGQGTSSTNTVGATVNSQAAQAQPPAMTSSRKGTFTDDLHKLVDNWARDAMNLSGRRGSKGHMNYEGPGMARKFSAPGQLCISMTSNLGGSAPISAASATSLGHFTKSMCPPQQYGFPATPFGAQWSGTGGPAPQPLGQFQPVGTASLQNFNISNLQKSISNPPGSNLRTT
Chain of UniProt P42336 (whole entry, unmodified, looked up): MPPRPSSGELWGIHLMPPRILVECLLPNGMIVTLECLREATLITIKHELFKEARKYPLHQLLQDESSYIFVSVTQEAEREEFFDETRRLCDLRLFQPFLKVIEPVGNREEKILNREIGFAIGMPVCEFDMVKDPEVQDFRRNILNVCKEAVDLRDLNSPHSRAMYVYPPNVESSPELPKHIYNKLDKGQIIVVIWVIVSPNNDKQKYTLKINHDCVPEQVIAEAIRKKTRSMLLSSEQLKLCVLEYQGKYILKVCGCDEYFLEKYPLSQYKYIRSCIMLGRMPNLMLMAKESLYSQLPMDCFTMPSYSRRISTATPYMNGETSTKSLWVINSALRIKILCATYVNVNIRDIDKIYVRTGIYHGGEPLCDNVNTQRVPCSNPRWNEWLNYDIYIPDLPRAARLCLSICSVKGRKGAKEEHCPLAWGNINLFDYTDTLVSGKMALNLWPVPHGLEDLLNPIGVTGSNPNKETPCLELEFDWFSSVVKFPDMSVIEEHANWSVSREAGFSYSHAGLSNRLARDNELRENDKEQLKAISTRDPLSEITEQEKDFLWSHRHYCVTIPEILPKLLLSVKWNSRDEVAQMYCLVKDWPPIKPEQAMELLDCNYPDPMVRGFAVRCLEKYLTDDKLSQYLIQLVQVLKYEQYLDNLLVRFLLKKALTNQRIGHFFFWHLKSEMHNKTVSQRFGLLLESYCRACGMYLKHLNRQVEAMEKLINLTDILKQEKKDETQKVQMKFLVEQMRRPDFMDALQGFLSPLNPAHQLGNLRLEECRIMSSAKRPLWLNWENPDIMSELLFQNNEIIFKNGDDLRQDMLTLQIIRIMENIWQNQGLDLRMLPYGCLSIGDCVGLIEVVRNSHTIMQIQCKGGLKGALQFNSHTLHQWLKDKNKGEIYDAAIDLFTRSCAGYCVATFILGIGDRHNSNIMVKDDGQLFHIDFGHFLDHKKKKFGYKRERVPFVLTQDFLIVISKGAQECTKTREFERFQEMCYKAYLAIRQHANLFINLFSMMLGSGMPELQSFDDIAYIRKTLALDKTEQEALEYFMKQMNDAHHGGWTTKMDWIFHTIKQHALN
Chain of UniProt Q9P289 (whole entry, looked up): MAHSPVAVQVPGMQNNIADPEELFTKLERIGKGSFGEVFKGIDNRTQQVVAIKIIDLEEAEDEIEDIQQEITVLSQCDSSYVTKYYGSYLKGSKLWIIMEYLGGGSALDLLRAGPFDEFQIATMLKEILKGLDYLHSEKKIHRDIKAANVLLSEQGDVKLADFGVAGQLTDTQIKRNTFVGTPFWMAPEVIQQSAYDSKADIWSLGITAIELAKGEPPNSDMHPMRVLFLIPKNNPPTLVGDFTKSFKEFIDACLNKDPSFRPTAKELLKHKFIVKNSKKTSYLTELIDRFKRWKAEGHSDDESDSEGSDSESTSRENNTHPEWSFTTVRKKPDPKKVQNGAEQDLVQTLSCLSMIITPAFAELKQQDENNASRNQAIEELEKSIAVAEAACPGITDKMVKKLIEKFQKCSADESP
Chain of UniProt Q9BXA7 (whole entry, looked up): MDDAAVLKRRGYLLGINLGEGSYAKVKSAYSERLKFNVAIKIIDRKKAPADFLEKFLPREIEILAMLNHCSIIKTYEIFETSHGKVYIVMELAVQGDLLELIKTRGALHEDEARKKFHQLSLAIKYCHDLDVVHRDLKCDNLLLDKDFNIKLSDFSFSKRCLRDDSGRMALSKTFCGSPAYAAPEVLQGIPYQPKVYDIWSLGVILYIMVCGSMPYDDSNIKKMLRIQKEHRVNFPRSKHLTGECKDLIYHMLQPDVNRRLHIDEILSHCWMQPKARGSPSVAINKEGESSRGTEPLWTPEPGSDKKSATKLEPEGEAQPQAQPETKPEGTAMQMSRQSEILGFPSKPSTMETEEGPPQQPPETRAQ

| Structure (SMILES) | target or system | assay | test system | conditions | endpoint | value |
| --- | --- | --- | --- | --- | --- | --- |
| COC(=O)c1ccc(O)cc1 | Helicobacter pylori | microbial growth, broth dilution | – | 0.98 µg/mL | inhibition | 69.8% |
| COc1cccc(-c2n[nH]c(SCc3ccccn3)n2)c1OC | – | – | female Sprague-Dawley rat, plasma | oral, 10 mg/kg, 8 h, single dose | concentration | 14.5 ng/mL |
| CNCc1cc(OC)cc2c1CN(c1cccc(-c3nncn3C(C)CC(F)(F)F)n1)C2=O (stereo not shown) | NCI-H1975 | cell growth or viability, CCK-8 | – | – | IC50 | 2.4 µM |
| COc1cc(-c2cncc3c2CN(C)Cc2cc(N4CCNCC4)ccc2-3)cc(OC)c1OC | Ribosomal protein S6 kinase alpha-6 (RPS6KA6, Homo sapiens, UniProt Q9UK32) | enzyme activity, inhibitor | – | 1 µM | remaining activity | 125% |
| CC(=NNC(=O)c1ccc(N)cc1)c1ccc(Nc2nnc(-c3ccc(Cl)cc3)c3ccccc23)cc1 | HepG2 | cell growth or viability, MTT | – | 1.25 µM, 24 h | viability | 46% |
| Cc1cc(C)c(C#N)c(SCC(=O)c2ccccc2O)n1 | Leishmania infantum | parasite growth | mouse Macrophage | intracellular, amastigote | EC50 | 51 µM |
| CNc1ncc2c(/C=C/C(=O)N3CCC(OC)CC3)nn(Cc3cccc(C(F)(F)F)c3)c2n1 | Serine/threonine-protein kinase PAK 5 (PAK5, Homo sapiens, UniProt Q9P286) | enzyme activity, inhibitor, radiometric | – | 1 µM | remaining activity | 93% |
| CC(C)(C)Nc1ccnc(Nc2cccc(-c3cccnc3)c2)n1 | BJ | cell growth or viability, ATP luminescence | – | 72 h | EC50 | > 20 µM |
| Cc1noc(C)c1Cn1cc(N2C(=O)CN(Cc3cccc(O)c3)C2=O)cn1 | – | – | male Sprague-Dawley rat, plasma | oral, 10 mg/kg, 2 h | concentration | 4.21 ng/mL |
| Nc1ccn([C@@H]2O[C@H](CO)[C@@H](O)C2(F)F)c(=O)n1 | HEK293 | cell growth or viability, MTT | – | 0.15625 µg/mL, 48 h | viability | 90.5% |
| C=CC(=O)N1CCC(COCC(=O)N2CCN(c3nc(-c4cnc(N)nc4C(F)F)nc(N4CCOC[C@@H]4C)n3)CC2)CC1 | Serine/threonine-protein kinase 26 (STK26, Homo sapiens, UniProt Q9P289) | binding, competition with immobilised ligand | – | 1 µM | remaining binding | 100% |
| COc1ccc(-c2cc(=O)c3c(O)cc(O[C@@H]4O[C@H](CO)[C@@H](O)[C@H](O)[C@H]4O)cc3o2)cc1O | Helicobacter pylori | microbial growth, broth dilution | – | 0.98 µg/mL | inhibition | 100% |
| CCCCn1cnc2ccc(-c3ccc(NC(=O)NC(C)(C)C)nc3)cc2c1=O | NCI-H1975 | cell growth or viability, CCK-8 | – | 72 h | IC50 | 5.66 µM |
| CCCN(O)N=Nc1ccc(S(=O)(=O)Nc2nccs2)cc1 | – | DPPH scavenging, absorbance | – | 240 µg/mL | inhibition | 22% |
| O=c1nc(N2CCN(CC3CCCCC3)CC2)sc2c([N+](=O)[O-])cc(C(F)(F)F)cc12 | – | – | CD-1 mouse, lung | intravenous, 10 mg/kg, 30 min | concentration | 2700 ng/mL |
| Cc1cc(NS(=O)(=O)c2ccc(N=NN(C)O)cc2)no1 | – | DPPH scavenging, absorbance | – | 60 µg/mL | inhibition | 30.5% |
| Cc1cc([C@@H](C)Nc2ccccc2C(=O)O)c2nc(N3CCC(F)(F)CC3)c(C#N)c(=O)n2c1 | Testis-specific serine/threonine-protein kinase 1 (TSSK1B, Homo sapiens, UniProt Q9BXA7) | binding, competition with immobilised ligand | – | 10 µM | remaining binding | 71% |

| Structure (SMILES) | target or system | assay | test system | conditions | endpoint | value |
| --- | --- | --- | --- | --- | --- | --- |
| Cc1cccc(N(O)N=Nc2ccc(S(=O)(=O)Nc3nccs3)cc2)c1 | – | DPPH scavenging, absorbance | – | 20 µg/mL | inhibition | 19.9% |
| O=C(Nc1ccc(Oc2nnc(-c3ccc(Cl)cc3)c3ccccc23)cc1)c1ccccc1 | HepG2 | cell growth or viability, MTT | – | 10 µM | cell death | 95.9% |
| CN(Cc1ccc(C(C)(C)C)cc1)Cc1cccc2ccccc12 | Trichophyton mentagrophytes | microbial growth, disc diffusion | ATCC18748 | 0.001 µg/mL, 72 h | inhibition zone | 19.2 mm |
| Cc1cc(C)c(C#N)c(SCC(=O)c2ccc(F)cc2F)n1 | Trypanosoma brucei | parasite growth, resazurin | RHODESIENSE | – | EC50 | 54.3 µM |
| Nc1ncnc2occ(-c3ccc(NC(=O)Nc4cc(C(F)(F)F)ccc4F)cc3)c12 | Phosphatidylinositol 4,5-bisphosphate 3-kinase catalytic subunit alpha isoform (PIK3CA, Homo sapiens, UniProt P42336, E545K) | cell-free assay, inhibitor | – | 20 µM | remaining signal | 49% |
| CC(=O)Nc1ccc(Oc2nnc(-c3ccc(Cl)cc3)c3ccccc23)cc1 | HepG2 | cell growth or viability, MTT | – | 10 µM, 24 h | viability | 6.84% |
| C1=C/COCc2cc(ccc2OCCN2CCCC2)Nc2nccc(n2)-c2cccc(c2)COC/1 | Serine/threonine-protein kinase WNK1 (WNK1, Homo sapiens, UniProt Q9H4A3) | cell-free assay | – | 0.1 µM | remaining signal | 81% |
| O=C(O)c1ccc(O)cc1 | Helicobacter pylori | microbial growth, broth dilution | – | 0.98 µg/mL | inhibition | 100% |
| Cc1ccc(N(O)N=Nc2ccc(S(=O)(=O)Nc3cc(C)on3)cc2)cc1 | – | DPPH scavenging, absorbance | – | 300 µg/mL | inhibition | 32.4% |
| COc1cc(-c2nc3ccccc3c(=O)n2Nc2ccc([N+](=O)[O-])cc2[N+](=O)[O-])ccc1OCc1cn(CC(=O)Nc2ccc([N+](=O)[O-])cc2Cl)nn1 | – | DPPH scavenging, absorbance | – | 100 µM | inhibition | 12.5% |
| O=C1O[C@H]([C@@H](O)CO)C(O)=C1O | – | DPPH scavenging, absorbance | – | 60 µg/mL | inhibition | 55.1% |
| CC(=NNC(=O)c1ccccc1O)c1ccc(Nc2nnc(-c3ccc(Cl)cc3)c3ccccc23)cc1 | HepG2 | cell growth or viability, MTT | – | 10 µM, 24 h | viability | 4.73% |
| Cc1noc(NS(=O)(=O)c2ccc(N=NN(C)O)cc2)c1C | – | DPPH scavenging, absorbance | – | 300 µg/mL | inhibition | 28.1% |
| CC(=NNC(=O)c1ccncc1)c1ccc(Nc2nnc(-c3ccc(Cl)cc3)c3ccccc23)cc1 | HepG2 | cell growth or viability, MTT | – | 2.5 µM | cell death | 96.1% |
| Cc1cc(NS(=O)(=O)c2ccc(N=NN(O)c3ccccc3)cc2)no1 | – | DPPH scavenging, absorbance | – | 180 µg/mL | inhibition | 32.1% |
| O=C(Nc1ccc(Oc2nnc(-c3ccc(Cl)cc3)c3ccccc23)cc1)c1cccc([N+](=O)[O-])c1 | HepG2 | cell growth or viability, MTT | – | 0.312 µM | cell death | 0.43% |
| COc1cccc(OC)c1-c1cc(C(=O)NC2(C(=O)O)C3CC4CC(C3)CC2C4)nn1-c1ccc(C(=O)N(C)CCCN(C)CCCN(C)C(=O)CN2CCN(CC(=O)[O-])CCN(CC(=O)[O-])CCN(CC(=O)[O-])CC2)cc1C(C)C.[177Lu+3] (stereo not shown) | HT-29 tumour model | – | host not given, stomach | 4 h, tumour-bearing | tracer uptake | 1 %ID/g |

A few entries again:
| Structure (SMILES) | target or system | assay | test system | conditions | endpoint | value |
| --- | --- | --- | --- | --- | --- | --- |
| CC(C)(C)Nc1ccnc(Nc2cccc(-c3cccnc3)c2)n1 | BJ | cell growth or viability, ATP luminescence | – | 72 h | EC50 | > 20 µM |
| CC(=O)Nc1ccc(Oc2nnc(-c3ccc(Cl)cc3)c3ccccc23)cc1 | HepG2 | cell growth or viability, MTT | – | 10 µM, 24 h | viability | 6.84% |
| Cc1cc(NS(=O)(=O)c2ccc(N=NN(O)c3ccccc3)cc2)no1 | – | DPPH scavenging, absorbance | – | 180 µg/mL | inhibition | 32.1% |
| CC(=NNC(=O)c1ccccc1O)c1ccc(Nc2nnc(-c3ccc(Cl)cc3)c3ccccc23)cc1 | HepG2 | cell growth or viability, MTT | – | 10 µM, 24 h | viability | 4.73% |
